# Measured values of several laboratories.
# A part holds a random share of what one study measured.

# Set 1
# Target: RNA binding protein fox-1 homolog 2, RRM domain, GST-SBP tag (RBFOX2, Homo sapiens, UniProt O43251-10, residues 100-194)
# Technique: RNA Bind-n-Seq
# Molecule type: RNA
# Medium: in vitro
# Tested at: 365 nM
# Notes: natural RNA segment, single round, ends assumed
# Baseline: no-protein control
# Direction: higher = stronger binding
# Residues (chain): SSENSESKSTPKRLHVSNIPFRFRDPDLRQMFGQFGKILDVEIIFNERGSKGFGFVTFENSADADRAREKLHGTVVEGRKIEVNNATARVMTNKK
Strand,RBNS enrichment (R)
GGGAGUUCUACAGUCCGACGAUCACAGUUGACAGCGUUCUGAAAAGAUGCCAUUUGUUUCCUUCUGAUCUCUCACUGAAUAAUGUUUACUGUACAGUCUUCCCAAGGUGAUUCCUGCGACUGCAGGCACUGGUUGGAAUUCUCGGGUGCCAA,0.224
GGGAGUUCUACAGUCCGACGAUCCGUGGUUGGGGCCCUGCCCUGGCAGGGUCAUCCUGUGCUCGGAGGCCAUCUCGGGCACAGGCCCACCCCGCCCCACCCCUCCAGAACACGGCUCACGCUUACCUCAACCAUGGAAUUCUCGGGUGCCAA,0.319
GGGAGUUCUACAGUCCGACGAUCAGGUACAAGAGCAGAGCAGAGGAGCAAGCAAGGACAGCUGGGUUGAGUCUGCAGGUCCAGUGUGGUUUAGGUCAGUCAGGGGCCAGCUGGCCUCUGACUGCAUUGCUUUAUGGAAUUCUCGGGUGCCAA,0.485
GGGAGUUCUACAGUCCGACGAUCGGCAAAGUGCAGUGCGUGUUUGUGGUCAAGAUGAGGGUGUUAAGGGAUGUUGGAGUCUGGUGUAGAGACAGGCAGGUUGCAGAAAAGCACAGAUCUUUGCCAGUGGUUGGUGGAAUUCUCGGGUGCCAA,1.8
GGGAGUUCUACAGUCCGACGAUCGGAACUGGGCUGGCGCUUGGAUCUGGGGUGGGAGUAACAGGGCAGAAAUGAUUAAAAUGUUUGAGCAAACUUGCCGUGCAUGUGUGAAGUGAAAUGAAGAACAUCCGCUCUGGAAUUCUCGGGUGCCAA,24.5
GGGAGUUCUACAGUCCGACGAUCUUGGACACUCCUGAGACUCCAAGUCUGGCUUUCAGUUCAGUUUUCAUCUGUGUUGACAUCGGGGCCAGAAAGCACAGCCAGCUAAAUGGGCCUCUGAGGUCACCUUCCCUUGGAAUUCUCGGGUGCCAA,0.243
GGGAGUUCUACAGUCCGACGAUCUGCUGGGAUAUUUUGAAUCCCCCAAGUUCCCUUGGACCUACUGAUGAGAGAUAGUUUUAUGUAUGGGGAAAAAUGGAUACUUUUUAAACCUUUUUUGGCAGCUCAGAUGGUGGAAUUCUCGGGUGCCAA,0.889
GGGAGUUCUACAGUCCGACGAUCUUACAAAUUAGGAAAGCAACCUUUCAGUUUAUAUAUAUAUUUUUUUUCCUUUUUGAUACCUCAGUGCUGCAAGUAUCAUCAGAGAGGCUAUGGAAGAGUUUUGUGUUUUGUGGAAUUCUCGGGUGCCAA,1.28

# Set 2
# Target: Histone acetyltransferase KAT6A, both winged helices, GST fusion (KAT6A, Homo sapiens, UniProt Q92794, residues 1-181)
# Technique: protein binding microarray
# Molecule type: double-stranded DNA, one strand shown
# Medium: in vitro
# Tested at: not given
# Notes: 8-mer, flanks averaged, mean of 2 arrays, mostly near background
# Baseline: not given
# Direction: higher = stronger binding
# Construct (chain): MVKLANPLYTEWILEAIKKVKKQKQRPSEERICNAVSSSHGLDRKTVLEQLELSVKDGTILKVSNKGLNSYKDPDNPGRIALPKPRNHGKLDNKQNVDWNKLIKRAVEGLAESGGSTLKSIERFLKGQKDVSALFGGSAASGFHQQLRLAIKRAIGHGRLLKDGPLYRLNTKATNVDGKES
Strand,E-score
ATAACCTC,-0.11
CAGAGACC,0.01
CCCGAGGG,-0.0862
CCTATTCG,-0.0929
CTCGGACA,0.183
AGACATGA,-0.109
CACTTATC,-0.156
CGCAAGGC,0.0151
AGGAACGA,0.0585
AATACATA,0.0256
CACATTCC,-0.00101

# Set 3
# Target: RING finger protein unkempt homolog, zinc fingers 1-6, GST-SBP tag (UNK, Homo sapiens, UniProt Q9C0B0, residues 30-357)
# Technique: RNA Bind-n-Seq
# Molecule type: RNA
# Medium: in vitro
# Tested at: not given
# Notes: RNA with constant flanks, human-mouse chimeric sites, ends assumed
# Baseline: input RNA pool
# Direction: higher = stronger binding
# Target sequence (chain): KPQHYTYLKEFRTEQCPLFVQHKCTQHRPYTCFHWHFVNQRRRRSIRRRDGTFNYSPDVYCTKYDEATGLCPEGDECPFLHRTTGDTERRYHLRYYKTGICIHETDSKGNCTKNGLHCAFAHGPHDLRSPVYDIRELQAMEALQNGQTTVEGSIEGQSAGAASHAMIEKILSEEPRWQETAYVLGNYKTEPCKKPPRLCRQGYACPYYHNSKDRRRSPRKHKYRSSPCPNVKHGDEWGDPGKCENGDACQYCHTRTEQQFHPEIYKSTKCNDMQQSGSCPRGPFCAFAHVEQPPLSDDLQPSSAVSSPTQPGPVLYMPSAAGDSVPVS
Strand,bound/input enrichment [ratio]
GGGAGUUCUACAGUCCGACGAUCAGAAUCUGUGACUGGCUUUACUUAAUUGGUCAUUGAUAUCUCAACAAACAUGGAGAUAAGAUUAGAAAUCUUGACAUCAACAGGUAUUAAGCAGAAAAAACCAUGGCCACGUGUCUCCUGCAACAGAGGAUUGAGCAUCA,0.205
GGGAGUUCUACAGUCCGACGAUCUUGCUACUGACUCCCUGGGUUAAAUUCCUGUGGGAAUCAUACAGGCAGUGUUUGGACCUUCUUCGAAACAAUUCUAGAGUAGAGCGCCUUUACCAUGAUAUCGCCCAGCAAGCUUUCAAACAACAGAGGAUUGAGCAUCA,0.216
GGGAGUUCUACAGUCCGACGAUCACAGUUAUAUUGUUGAGGUUUGUAUUUAUAUAUUCUUGUAGUGUCUGCUUGCCUGUGACUUCUGGUAAAAUAAAAUAAGCCUUUGAAAAUAUUUUAGCAUGGUAUUUAACAUUUUCUAAACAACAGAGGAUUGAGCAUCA,1.94
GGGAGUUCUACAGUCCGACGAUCCGCGUCCUCUCGCUGCUGCGGAGCCCGAGCUGGGAACACCCCUUCCGCUGGUACCCUGCACACAGCCGCCUCUUCGAUCAAGCUUUCGGGGUGCCCCGGUUGCCCGAUGAGUGGUCGCAGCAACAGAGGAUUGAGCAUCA,0.089
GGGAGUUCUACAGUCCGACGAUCUAAAUUAGGGCUGCCGUUUUCUGUUUCUCCCUGGGCUGCGGAAAGCCAGAAGAUUUUAUCUAGCUUAUACAAGGCUGCUGGAGCUUGCUCUUUUUUUCCACGAGGGUUUUUUUUCCAGCACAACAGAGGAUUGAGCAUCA,0.634
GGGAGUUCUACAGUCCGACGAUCCCCCAAUACCAUUUGCAGGUCUGGAACUGCACUCUCUUUAAAGUUUUACAUGUAUACAUUUUAGGGCUGUAGAUUUAUUUUCCUGGUUUUGUUUUUCAUUGCUGACUUUGAGCACAAGAACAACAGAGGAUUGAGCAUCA,2.32
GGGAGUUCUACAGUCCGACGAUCGCUCUUGGGAAUGUAAUCAGCGCCUUGGGAGACAAGAGCAAGAGAGCCACCCAUGUCCCUUACAGAGACUCUAAGCUGACAAGACUCUUGCAGGAUUCCCUCGGGGGUAACAGCCAAACCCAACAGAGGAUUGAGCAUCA,0.165
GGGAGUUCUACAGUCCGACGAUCCUCAUGGCUGCAGAAACAGGAAGUGGAAAAACUGGUGCAUUUAGUAUUCCCGUUAUCCAGAUAGUUUAUGAAACUCUGAAAGACCAACAGGAAGGAAAGAAAGGGAAAACAACAAUUAAACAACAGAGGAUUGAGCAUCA,1.34

# Further values, each from its own experiment
Substance,target,test,test system,setting,how to read,quantity,value
"PhoQ, residues 284 288 289 292 302 303 QWGLFV","PhoP, residues 12 14 15 18 19 GHCSL (Escherichia coli, UniProt P23836)","Sort-seq, measured: YFP reporter",E. coli,"PhoQ-PhoP variant library, together with: 10 µM Mg2+","baseline: high Mg2+ state, higher = stronger signaling",fold induction,5.36

# Some of these lines once more (set 2):
Strand,E-score
CACTTATC,-0.156
CGCAAGGC,0.0151
AGGAACGA,0.0585
